Measurements collected from several papers.
Numbered parts are unrelated; each lists some results of a single study.

Study 1
Target: Histone acetyltransferase KAT6A, both winged helices, GST fusion (KAT6A, Homo sapiens, UniProt Q92794, residues 1-181)
Technique: protein binding microarray
Form: double-stranded DNA, one strand shown
Matrix: in vitro
Concentration: not given
Notes: 8-mer, flanks averaged, mean of 2 arrays, mostly near background
Relative to: not given
Reading: higher = stronger binding
Residues (chain): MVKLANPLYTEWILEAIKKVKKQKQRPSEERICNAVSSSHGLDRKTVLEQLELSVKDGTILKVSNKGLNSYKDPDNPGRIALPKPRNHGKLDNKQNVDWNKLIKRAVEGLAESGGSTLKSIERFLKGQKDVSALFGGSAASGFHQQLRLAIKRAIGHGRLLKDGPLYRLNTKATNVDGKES
| Sequence | E-score |
| --- | --- |
| AATCTGGG | -0.182 |
| CTTCCCCC | -0.182 |
| AAAGAGAG | -0.0555 |
| ACTATGGA | -0.116 |
| CCTTGTTA | -0.056 |
| CCACGTCC | -0.144 |
| CGATGGAA | 0.0225 |
| CAATAATC | 0.0129 |

Study 2
Cell line: HEK-293T-ACE2
Concentration: concentration not given
Relative to: vehicle
| Compound | cell number [%] |
| --- | --- |
| Nc1nc2[nH]cc(CCc3ccc(C(=O)N[C@@H](CCC(=O)O)C(=O)O)cc3)c2c(=O)[nH]1 | 94.8 |
| O=[As]O[As]=O (centres unmarked) | 99.7 |
| O=C([O-])[C@H](O)[C@@H](O)[C@H](O)[C@H](O)CO.[Na+] | 102 |

Study 3
Target: Myc proto-oncogene protein, bHLH-zipper, MAX partner unstated (MYC, Homo sapiens, UniProt P01106, residues 368-449)
UniProt P01106, sequence (368-449, looked up): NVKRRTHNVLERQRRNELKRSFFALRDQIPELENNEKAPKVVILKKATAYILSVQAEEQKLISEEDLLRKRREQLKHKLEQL
Technique: protein-binding microarray
Form: double-stranded DNA, one strand shown
Matrix: in vitro
Concentration: not given
Notes: k-mer, scored over probes, only values ≥0.25
Reading: higher = stronger binding
| Sequence | E-score |
| --- | --- |
| ATGTGGCG | 0.379 |
| GCATGGAC | 0.403 |
| ACATGTGC | 0.478 |

Study 4
Target: RNA binding protein fox-1 homolog 2, RRM domain, GST-SBP tag (RBFOX2, Homo sapiens, UniProt O43251-10, residues 100-194)
Technique: RNA Bind-n-Seq
Form: RNA
Matrix: in vitro
Concentration: 365 nM
Notes: natural RNA segment, single round, ends assumed
Relative to: no-protein control
Reading: higher = stronger binding
All sequences stand within: GGGAGUUCUACAGUCCGACGAUC … UGGAAUUCUCGGGUGCCAA
Residues (chain): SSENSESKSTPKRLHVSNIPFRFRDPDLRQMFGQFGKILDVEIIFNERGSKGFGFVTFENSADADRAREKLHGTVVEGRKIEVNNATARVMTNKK
| Sequence | RBNS enrichment (R) |
| --- | --- |
| UGGAUCUAUUUUAUGCAUGACCUUUUAACCUUUGACUUUGCUUAUUUCCCACUACGAAGGGGAAGGUAGAUUUUAUGAAUGAUUUUAAUAGCAAAUAUAUUUUAUAAAGU | 8.87 |
| AAUUCAUGUCUAAAUCACUGGGGUUGAGACUCCUUCAGCCUCCCUGGUUGAUUAGAGAUUCUGAGAAGCAGUAGAGCUGGCUGGGAGGUGGGCUACAGAGGAGCAAGCAA | 4.73 |
| CAGCUCAGGUUUUAUCACCGACUGGGAAUAGACAACCUCAAUGCUGAACCGCACUGGAGAAAAGGGGCAAGGUACCCCUGCUGAGGUGUAUGGGCUGCCAUCUCAGGCUG | 0.483 |
| UAUUUAAAUAACAUCAACAGAACAACUUCACUUUGGGCCAAACAUUUGAAAAACUUUUUAUAAAAAAUUGUUUGAUAUUUCUUAAUGUCUGCUCUGAGCCUUAAAACACA | 0.544 |
| AAUGAGCUCUUAGUGUUUUAUUUAUCUGAAAAAAUGUAAGUAAAAGCAGUGUUAGUGAGAGGUGCAAAGAAUUAUUCUAACAGACACCUGAAAGUAUCUGUAAGCAAUAC | 0.709 |
| AUACUGUUACAUCCAGAACAUUUGUCAGGCUCUCUGUCAGCUUUCAUGUACAUAUGGUAUAGAAACCAUGGAGUUAGGCACUUCCUGGAUUUUUUUUUUAUGAGAAAAAU | 0.339 |
| CCACCUGCCUCUAAUCUGAGCUGCAGCCUGGCUGGUCCUCCCAUUUCUAAAGCUGAAUGUCAAACAGUGCCAAAUGCUGGGGCAGGGGGUGAAGAACCCUCUGUCCCACC | 0.691 |
| AGUGGUGUCAGGAUGAGGUGGCCCCUGGCUUUCUGGUUCACAACAAGCUAGAGAUUUUCAAAGCUACCCUUUUGAGUAAAACCCCUUAUUAAAAGAGAAACCAUGACUGG | 0.379 |

Study 5
Target: Replicase polyprotein 1ab, polymerase (rep, Severe acute respiratory syndrome coronavirus 2, UniProt P0DTD1)
Read-out: enzyme activity
Mode: inhibitor
Concentration: 20 µM
| SMILES | inhibition |
| --- | --- |
| O=S(=O)(Oc1ccc(Cl)cc1)c1ccc(Cl)cc1 | 2.56% |
| CC1=C(CC(=O)O)c2cc(F)ccc2/C1=C\c1ccc([S+](C)[O-])cc1 (centres unmarked) | 29.4% |
| CCOC(=S)SSC(=S)OCC | -9.93% |
| CN1CCN(c2cc(-c3ccccc3)nc(N)n2)CC1 | -4.91% |
| C=C1CC[C@H](O)C/C1=C/C=C1\CCC[C@]2(C)[C@@H]([C@H](C)CCCC(C)(C)O)CC[C@@H]12 | -3.17% |
| O=C(c1ccc(Cl)o1)N1C[C@H]2CNC[C@H]2C1 | -1.88% |
| Cc1ccc(CNc2ncnc3ccc(-c4ccc(CO)o4)cc23)o1 | -2.14% |
| O=C(O)C(Cc1ccccc1[N+](=O)[O-])=NNc1nc(-c2ccc(Cl)c(Cl)c2)cs1 (mixture of isomers) | 18.7% |
| Cn1cc(-c2cnc3ccc4ccc(CS(=O)(=O)NCc5ccccn5)cc4c(=O)c3c2)cn1 | 16.4% |
| C[N+]1([O-])[C@@H]2CC[C@H]1C[C@@H](OC(=O)C(CO)c1ccccc1)C2 (some centres unmarked) | -2.6% |
| O=c1[nH]cc(F)c(=O)[nH]1 | 27.6% |
| N[C@H](Cc1ccccc1)C(=O)O | -3.38% |
| c1ccc2c(c1)Sc1ccccc1N2C[C@@H]1CN2CCC1CC2 | 12.2% |
| CC(=O)CC(c1ccccc1)c1c(O)c2ccccc2oc1=O (centres unmarked) | 1.53% |
| CC1=CC(=O)NS(=O)(=O)O1 | 5.44% |
| CC(C)(C)NC[C@H](O)c1ccc(O)c(CO)c1 | 1.45% |
| CC(=O)S[C@@H]1CC2=CC(=O)CC[C@]2(C)[C@H]2CC[C@@]3(C)[C@@H](CC[C@@]34CCC(=O)O4)[C@H]12 | 24.7% |
| OCC(CO)N[C@H]1C[C@](O)(CO)[C@@H](O)[C@H](O)[C@H]1O | -1.87% |
| CS/C(N)=C(C#N)/C(C#N)=C(\N)SC | 2.74% |
| CNc1cc2[nH]c(=O)n(-c3ccc(NC(=O)NS(=O)(=O)c4ccc(Cl)s4)cc3)c(=O)c2cc1F | -12% |
| CC[C@H](C)[C@H](NC(=O)[C@H](Cc1ccc(O)cc1)NC(=O)[C@@H](NC(=O)[C@H](CCCNC(=N)N)NC(=O)[C@@H](N)CC(=O)O)C(C)C)C(=O)N[C@@H](Cc1cnc[nH]1)C(=O)N1CCC[C@H]1C(=O)N[C@@H](Cc1ccccc1)C(=O)O | -0.04% |
| CCn1c(=O)n(C2=C(CO)CN(CC3CCCCCCC3)CC2)c2ccccc21 | 0.14% |
| CCN(CC)CCNC(=O)c1cc(Br)c(N)cc1OC | 5.62% |
| CCOc1ccc(NC(=S)N2CCC(C(O)(c3ccccc3)c3ccccc3)CC2)cc1 | 13.5% |

Study 6
Target: Replicase polyprotein 1ab, main protease (rep, Severe acute respiratory syndrome coronavirus 2, UniProt P0DTD1)
Read-out: enzyme activity
Mode: inhibitor
Concentration: 20 µM
Notes: primary screen
| Structure (SMILES) | inhibition |
| --- | --- |
| C[n+]1c2cc(N)ccc2cc2ccc(N)cc21.Nc1ccc2cc3ccc(N)cc3nc2c1 | 59% |
| Nc1sc2c(c1C(=O)c1ccc(Cl)cc1)CCCC2 | 33.4% |
| CCCCOc1ccc(C(=O)CCN2CCCCC2)cc1 | 47% |
| COc1cc(-c2ccc(/N=N/c3ccc4c(S(=O)(=O)O)cc(S(=O)(=O)O)c(N)c4c3O)c(OC)c2)ccc1/N=N/c1ccc2c(S(=O)(=O)O)cc(S(=O)(=O)O)c(N)c2c1O | 101% |

For quick reference, copied from above (study 4):
| Sequence | RBNS enrichment (R) |
| --- | --- |
| CAGCUCAGGUUUUAUCACCGACUGGGAAUAGACAACCUCAAUGCUGAACCGCACUGGAGAAAAGGGGCAAGGUACCCCUGCUGAGGUGUAUGGGCUGCCAUCUCAGGCUG | 0.483 |
| UAUUUAAAUAACAUCAACAGAACAACUUCACUUUGGGCCAAACAUUUGAAAAACUUUUUAUAAAAAAUUGUUUGAUAUUUCUUAAUGUCUGCUCUGAGCCUUAAAACACA | 0.544 |
| AAUGAGCUCUUAGUGUUUUAUUUAUCUGAAAAAAUGUAAGUAAAAGCAGUGUUAGUGAGAGGUGCAAAGAAUUAUUCUAACAGACACCUGAAAGUAUCUGUAAGCAAUAC | 0.709 |
| AUACUGUUACAUCCAGAACAUUUGUCAGGCUCUCUGUCAGCUUUCAUGUACAUAUGGUAUAGAAACCAUGGAGUUAGGCACUUCCUGGAUUUUUUUUUUAUGAGAAAAAU | 0.339 |
| CCACCUGCCUCUAAUCUGAGCUGCAGCCUGGCUGGUCCUCCCAUUUCUAAAGCUGAAUGUCAAACAGUGCCAAAUGCUGGGGCAGGGGGUGAAGAACCCUCUGUCCCACC | 0.691 |
| AGUGGUGUCAGGAUGAGGUGGCCCCUGGCUUUCUGGUUCACAACAAGCUAGAGAUUUUCAAAGCUACCCUUUUGAGUAAAACCCCUUAUUAAAAGAGAAACCAUGACUGG | 0.379 |
